Published values of several laboratories.
Parts stem from different laboratories: compare values within a part only.
Chain of UniProt Q9UK32 (whole entry, looked up): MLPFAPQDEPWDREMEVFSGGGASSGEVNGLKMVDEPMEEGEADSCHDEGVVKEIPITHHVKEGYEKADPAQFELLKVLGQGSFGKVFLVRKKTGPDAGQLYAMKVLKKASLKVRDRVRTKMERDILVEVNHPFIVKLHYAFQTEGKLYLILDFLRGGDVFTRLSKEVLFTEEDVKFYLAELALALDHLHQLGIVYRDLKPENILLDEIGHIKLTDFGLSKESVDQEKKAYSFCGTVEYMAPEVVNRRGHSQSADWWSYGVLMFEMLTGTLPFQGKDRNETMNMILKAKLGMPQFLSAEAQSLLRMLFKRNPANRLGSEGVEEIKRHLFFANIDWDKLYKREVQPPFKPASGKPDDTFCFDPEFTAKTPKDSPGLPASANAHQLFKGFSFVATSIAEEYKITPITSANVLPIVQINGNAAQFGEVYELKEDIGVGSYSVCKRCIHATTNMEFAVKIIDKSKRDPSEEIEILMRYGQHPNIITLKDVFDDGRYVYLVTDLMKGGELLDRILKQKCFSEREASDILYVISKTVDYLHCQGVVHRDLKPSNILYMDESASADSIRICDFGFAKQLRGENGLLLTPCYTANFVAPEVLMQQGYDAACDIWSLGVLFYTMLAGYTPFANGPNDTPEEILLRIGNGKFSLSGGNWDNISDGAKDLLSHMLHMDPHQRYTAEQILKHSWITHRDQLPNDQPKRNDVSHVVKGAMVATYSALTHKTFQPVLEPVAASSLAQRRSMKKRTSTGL
Chain of UniProt Q16288 (whole entry, looked up): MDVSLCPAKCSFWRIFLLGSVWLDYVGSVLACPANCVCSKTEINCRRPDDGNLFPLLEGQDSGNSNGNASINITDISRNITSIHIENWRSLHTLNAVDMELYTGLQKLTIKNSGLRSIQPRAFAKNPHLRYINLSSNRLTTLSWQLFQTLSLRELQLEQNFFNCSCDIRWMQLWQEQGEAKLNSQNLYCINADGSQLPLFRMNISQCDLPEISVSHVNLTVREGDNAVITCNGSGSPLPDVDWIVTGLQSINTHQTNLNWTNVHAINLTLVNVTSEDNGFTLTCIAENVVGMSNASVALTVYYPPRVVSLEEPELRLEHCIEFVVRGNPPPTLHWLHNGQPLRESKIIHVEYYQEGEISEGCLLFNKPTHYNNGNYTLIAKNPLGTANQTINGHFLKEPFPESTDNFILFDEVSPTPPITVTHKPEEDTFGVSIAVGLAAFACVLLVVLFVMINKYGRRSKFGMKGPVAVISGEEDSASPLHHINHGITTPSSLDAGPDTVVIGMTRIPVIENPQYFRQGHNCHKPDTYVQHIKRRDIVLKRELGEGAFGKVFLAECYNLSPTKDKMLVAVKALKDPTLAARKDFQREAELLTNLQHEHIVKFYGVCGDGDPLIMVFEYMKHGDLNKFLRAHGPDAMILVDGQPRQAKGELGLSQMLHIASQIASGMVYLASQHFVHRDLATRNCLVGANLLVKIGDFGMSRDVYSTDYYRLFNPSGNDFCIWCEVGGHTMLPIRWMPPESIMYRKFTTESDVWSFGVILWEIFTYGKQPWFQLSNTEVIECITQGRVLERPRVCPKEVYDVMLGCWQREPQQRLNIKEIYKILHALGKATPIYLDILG
Chain of UniProt Q15831 (whole entry, looked up): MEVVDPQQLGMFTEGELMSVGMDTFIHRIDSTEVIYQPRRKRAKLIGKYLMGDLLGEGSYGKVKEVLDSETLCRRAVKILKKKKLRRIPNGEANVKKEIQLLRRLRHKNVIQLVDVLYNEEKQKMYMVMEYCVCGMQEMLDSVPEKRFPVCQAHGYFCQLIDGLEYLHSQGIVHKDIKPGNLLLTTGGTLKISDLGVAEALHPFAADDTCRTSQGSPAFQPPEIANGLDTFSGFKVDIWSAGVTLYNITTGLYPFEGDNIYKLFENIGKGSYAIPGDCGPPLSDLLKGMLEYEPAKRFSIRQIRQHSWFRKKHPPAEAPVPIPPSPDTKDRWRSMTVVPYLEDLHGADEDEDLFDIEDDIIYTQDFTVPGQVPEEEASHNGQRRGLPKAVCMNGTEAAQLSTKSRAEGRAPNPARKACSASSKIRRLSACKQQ
Chain of UniProt Q6PHR2 (whole entry, looked up): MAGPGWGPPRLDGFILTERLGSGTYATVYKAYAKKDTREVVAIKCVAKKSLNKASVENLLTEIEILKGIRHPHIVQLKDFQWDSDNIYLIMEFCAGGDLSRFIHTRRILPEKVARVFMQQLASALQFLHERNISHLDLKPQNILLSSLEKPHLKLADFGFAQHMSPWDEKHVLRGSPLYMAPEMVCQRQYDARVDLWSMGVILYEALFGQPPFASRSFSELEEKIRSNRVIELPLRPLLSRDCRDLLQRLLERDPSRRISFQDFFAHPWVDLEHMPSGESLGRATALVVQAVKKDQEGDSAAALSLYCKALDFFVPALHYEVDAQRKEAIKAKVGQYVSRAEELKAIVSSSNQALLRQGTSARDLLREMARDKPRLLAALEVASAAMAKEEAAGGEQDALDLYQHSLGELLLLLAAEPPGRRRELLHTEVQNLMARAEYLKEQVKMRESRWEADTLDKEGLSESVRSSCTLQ
Chain of UniProt P11802 (whole entry, looked up): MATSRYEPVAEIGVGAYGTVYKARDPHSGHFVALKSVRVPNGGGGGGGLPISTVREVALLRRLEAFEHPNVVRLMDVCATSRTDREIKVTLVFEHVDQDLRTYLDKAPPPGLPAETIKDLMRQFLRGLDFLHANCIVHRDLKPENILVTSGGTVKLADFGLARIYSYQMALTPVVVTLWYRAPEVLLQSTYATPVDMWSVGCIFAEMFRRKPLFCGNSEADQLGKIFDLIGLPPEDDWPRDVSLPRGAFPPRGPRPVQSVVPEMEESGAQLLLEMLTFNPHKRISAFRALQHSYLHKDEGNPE
Chain of UniProt Q07002 (whole entry, looked up): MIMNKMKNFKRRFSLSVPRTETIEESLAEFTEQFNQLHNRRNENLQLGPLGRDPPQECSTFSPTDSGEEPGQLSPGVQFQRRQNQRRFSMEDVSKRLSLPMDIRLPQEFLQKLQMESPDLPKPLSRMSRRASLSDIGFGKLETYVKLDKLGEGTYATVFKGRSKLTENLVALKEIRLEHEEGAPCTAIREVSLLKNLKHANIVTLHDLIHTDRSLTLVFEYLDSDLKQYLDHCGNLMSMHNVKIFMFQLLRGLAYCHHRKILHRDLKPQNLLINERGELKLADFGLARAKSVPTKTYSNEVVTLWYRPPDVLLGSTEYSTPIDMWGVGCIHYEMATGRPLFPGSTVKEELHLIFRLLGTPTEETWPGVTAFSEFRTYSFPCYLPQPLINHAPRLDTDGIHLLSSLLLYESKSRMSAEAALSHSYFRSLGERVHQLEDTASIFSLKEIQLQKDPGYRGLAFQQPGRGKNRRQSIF
Chain of UniProt P50613 (whole entry, looked up): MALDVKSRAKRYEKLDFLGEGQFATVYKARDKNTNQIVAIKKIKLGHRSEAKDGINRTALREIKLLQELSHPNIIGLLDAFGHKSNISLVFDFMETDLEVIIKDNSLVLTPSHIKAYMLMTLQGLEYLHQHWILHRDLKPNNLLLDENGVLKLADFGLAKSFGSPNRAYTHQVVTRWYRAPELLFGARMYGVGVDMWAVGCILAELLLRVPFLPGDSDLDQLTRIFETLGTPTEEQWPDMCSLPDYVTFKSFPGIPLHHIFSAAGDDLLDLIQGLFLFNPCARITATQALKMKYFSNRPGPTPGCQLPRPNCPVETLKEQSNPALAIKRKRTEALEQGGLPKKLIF

Sample 1 — effect on: enzyme activity; tested at: 5 µM; baseline: untreated control; quantity: remaining activity
SMILES: O=C(Nc1cnn(-c2csc(C(=O)NC3COC3)c2)c1)Nc1ccccc1Cl
EPHA6 (Homo sapiens, UniProt Q9UF33): 99%
NTRK3 (Homo sapiens, UniProt Q16288): 64%
STK11 (Homo sapiens, UniProt Q15831): 115%
MAPK9 (Homo sapiens, UniProt P45984): 33.9%
RPS6KA6 (Homo sapiens, UniProt Q9UK32): 102%
Cyclin-dependent kinase 18, with cyclin Y (CDK18, Homo sapiens, UniProt Q07002): 98.8%
PRKACA (Homo sapiens, UniProt P17612): 96.8%

Sample 2 — Structure (SMILES): O=c1nc(-c2ccccn2)sc2ccccc12; technique: competition with immobilised ligand; tested at: 1 µM; quantity: remaining binding
CAMK4 (Homo sapiens, UniProt Q16566); binding: 97%
CDK7 (Homo sapiens, UniProt P50613); binding: 69%
LCK (Homo sapiens, UniProt P06239); binding: 95%
PRKCQ (Homo sapiens, UniProt Q04759); cell-free assay: 90%
Cyclin-dependent kinase 4, with cyclin D1 (CDK4, Homo sapiens, UniProt P11802); binding: 100%
Ribosomal protein S6 kinase alpha-4, N-terminal kinase domain (RPS6KA4, Homo sapiens, UniProt O75676); binding: 100%
ULK3 (Homo sapiens, UniProt Q6PHR2); binding: 100%

Sample 3 — effect on: enzyme activity; action: inhibitor; tested at: 0.5 µM; baseline: control; quantity: remaining activity
Target: Fibroblast growth factor receptor 1 (FGFR1, Homo sapiens, UniProt P11362)
Chain of UniProt P11362 (whole entry, looked up): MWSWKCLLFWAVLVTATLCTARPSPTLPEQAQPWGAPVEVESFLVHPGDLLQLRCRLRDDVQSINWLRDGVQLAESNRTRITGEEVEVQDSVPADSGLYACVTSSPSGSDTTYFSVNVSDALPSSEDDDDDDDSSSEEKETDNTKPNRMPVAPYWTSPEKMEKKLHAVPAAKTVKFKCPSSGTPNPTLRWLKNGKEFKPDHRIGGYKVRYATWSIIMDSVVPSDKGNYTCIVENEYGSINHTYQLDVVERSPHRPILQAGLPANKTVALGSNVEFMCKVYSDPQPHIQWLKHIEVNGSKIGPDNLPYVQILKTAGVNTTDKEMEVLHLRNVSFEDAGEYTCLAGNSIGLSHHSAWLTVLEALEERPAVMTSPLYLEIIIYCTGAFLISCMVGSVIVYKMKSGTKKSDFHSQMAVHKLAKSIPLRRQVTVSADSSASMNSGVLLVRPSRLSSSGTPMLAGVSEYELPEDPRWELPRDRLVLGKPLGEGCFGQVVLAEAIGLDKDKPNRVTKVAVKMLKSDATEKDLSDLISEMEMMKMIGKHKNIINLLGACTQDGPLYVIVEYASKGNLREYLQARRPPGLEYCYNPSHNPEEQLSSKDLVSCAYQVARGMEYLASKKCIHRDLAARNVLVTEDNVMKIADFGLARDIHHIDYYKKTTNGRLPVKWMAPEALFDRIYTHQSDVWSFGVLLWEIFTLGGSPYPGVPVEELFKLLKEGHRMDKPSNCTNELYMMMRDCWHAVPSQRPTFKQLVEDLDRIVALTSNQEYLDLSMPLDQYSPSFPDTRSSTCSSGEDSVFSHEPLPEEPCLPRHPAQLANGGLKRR
Cn1c2ccccc2c2c3c(c4c5ccccc5n(CCC#N)c4c21)CNC3=O: 63.3%
CC(C)[C@H](CO)Nc1nc(Nc2cc(N)cc(Cl)c2)c2ncn(C(C)C)c2n1: 76.7%
OCC(O)CCON=C1C(c2c(O)[nH]c3ccccc23)=Nc2ccccc21 (stereo not shown): 27.9%
Cn1sc(=O)n(Cc2ccccc2)c1=O: 95.6%
COc1cc2nccc(Oc3ccc(NC(=S)NC(=O)c4ccccc4C)cc3)c2cc1OC: 75.7%
C#Cc1cccc(Nc2ncnc3cc(OCCOC)c(OCCOC)cc23)c1: 99.1%
O=C1NC(=O)C(c2cn(CCCn3ccnc3)c3ccccc23)=C1Nc1ccccc1: 78.5%
Cc1cccc(-c2[nH]c(C(C)(C)C)nc2-c2ccc3c(c2)OCO3)n1: 90.8%
O=C1NC(=O)C(c2cn(CCCO)c3ncccc23)=C1c1cnccn1: 81.2%
CNC(=O)c1cc(Oc2ccc(NC(=O)Nc3ccc(Cl)c(C(F)(F)F)c3)cc2)ccn1: 90.9%
O=C(CCCc1ccc(-c2ccccc2F)cc1)Nc1ccc(O)cc1: 98%
O=S(=O)(c1cccc2cnccc12)N1CCCNCC1: 94.6%
COc1ccc(CNC(=O)Nc2ncc([N+](=O)[O-])s2)cc1: 98.9%
CO[C@H]1C[C@@H]2CC[C@@H](C)[C@@](O)(O2)C(=O)C(=O)N2CCCC[C@H]2C(=O)O[C@H]([C@H](C)C[C@@H]2CC[C@@H](O)[C@H](OC)C2)CC(=O)[C@H](C)/C=C(\C)[C@@H](O)[C@@H](OC)C(=O)[C@H](C)C[C@H](C)/C=C/C=C/C=C/1C: 89.4%

Sample 4 — action: agonist; quantity: EC50
Target: Beta-1 adrenergic receptor (ADRB1, Homo sapiens, UniProt P08588)
Chain of UniProt P08588 (whole entry, looked up): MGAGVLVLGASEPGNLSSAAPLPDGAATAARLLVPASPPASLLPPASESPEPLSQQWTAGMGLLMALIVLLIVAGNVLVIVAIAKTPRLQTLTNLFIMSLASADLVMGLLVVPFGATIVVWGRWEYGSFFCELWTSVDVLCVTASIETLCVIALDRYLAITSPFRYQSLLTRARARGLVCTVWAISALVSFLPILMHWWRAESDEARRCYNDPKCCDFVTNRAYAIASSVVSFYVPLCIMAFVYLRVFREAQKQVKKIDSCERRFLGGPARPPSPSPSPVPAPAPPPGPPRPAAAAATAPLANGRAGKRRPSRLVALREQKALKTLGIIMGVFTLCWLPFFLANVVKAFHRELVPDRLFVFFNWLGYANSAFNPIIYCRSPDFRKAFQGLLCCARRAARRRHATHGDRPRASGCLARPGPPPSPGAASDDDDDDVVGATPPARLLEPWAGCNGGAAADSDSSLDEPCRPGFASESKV
OC1(c2nc(Nc3cccc(N4CCOCC4)c3)n[nH]2)CCOCC1: ≥ 100 µM
CN1CCN(Cc2cccc(OCC(O)CN3CCc4ccccc4C3)c2)CC1 (stereo not shown): ≥ 100 µM
O=C1c2cc(N3CCOCC3)nc(-c3cccc(O)c3)c2CN1CC(F)(F)F: ≥ 100 µM
CCNC(=O)Nc1ccc([C@@H](O)[C@H]2COCC(=O)N2Cc2ccccc2)cc1: ≥ 100 µM
Cc1noc(C)c1-c1cc2cc(C(C)C)oc2c(NCCN2CCOCC2)n1: ≥ 100 µM
COc1ccccc1CN1C(=O)COC[C@@H]1[C@H](O)c1ccc(NC(=O)CCc2ccccc2)cc1: ≥ 100 µM

A few entries again (sample 3):
OCC(O)CCON=C1C(c2c(O)[nH]c3ccccc23)=Nc2ccccc21 (stereo not shown): 27.9%
Cn1sc(=O)n(Cc2ccccc2)c1=O: 95.6%
COc1cc2nccc(Oc3ccc(NC(=S)NC(=O)c4ccccc4C)cc3)c2cc1OC: 75.7%
C#Cc1cccc(Nc2ncnc3cc(OCCOC)c(OCCOC)cc23)c1: 99.1%
